Measurements collected from several papers.
Lines come from different studies, so protocols differ. ± marks the error that the study gave. Converted amounts (≈) assume the structure as drawn.
ESR2: Estrogen receptor beta (ESR2, Homo sapiens, UniProt Q92731)
Sequence of UniProt Q92731 (whole entry, looked up): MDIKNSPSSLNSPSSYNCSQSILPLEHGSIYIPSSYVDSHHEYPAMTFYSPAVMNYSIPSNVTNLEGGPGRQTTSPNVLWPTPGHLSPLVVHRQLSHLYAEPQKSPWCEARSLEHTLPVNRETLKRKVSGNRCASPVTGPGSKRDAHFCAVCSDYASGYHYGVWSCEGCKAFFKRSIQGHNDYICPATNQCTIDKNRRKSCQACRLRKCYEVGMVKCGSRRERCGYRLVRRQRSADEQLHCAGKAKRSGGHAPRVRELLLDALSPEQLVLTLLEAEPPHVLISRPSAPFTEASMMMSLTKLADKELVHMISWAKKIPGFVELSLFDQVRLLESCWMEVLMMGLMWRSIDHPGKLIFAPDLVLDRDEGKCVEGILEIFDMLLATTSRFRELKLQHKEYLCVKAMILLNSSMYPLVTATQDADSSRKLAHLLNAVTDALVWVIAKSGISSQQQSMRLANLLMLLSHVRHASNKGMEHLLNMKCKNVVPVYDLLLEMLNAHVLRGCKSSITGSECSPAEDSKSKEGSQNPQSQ

Structure (SMILES)	target or system	assay	system	setting	scale	measurement	value
CCc1cc(C(=O)NC)c2nccc(N3CCc4c(cc(Cn5ccnc5)cc4-c4cn(C)nc4C(F)(F)F)C3=O)c2c1	–	–	Sprague Dawley rats	oral, 100 mg/kg twice daily, 7 days	–	blood MCHC	306 ± 7.33 g/L
c1csc(CNc2cc[nH]n2)c1	–	alkaline comet	Hsd:ICR(CD-1) mice, male, liver	oral, 250 mg/kg/day, 3 days	–	tail DNA	1.71%
COc1cc2oc(-c3ccc(O)cc3)cc(=O)c2c(O)c1[C@@H]1O[C@H](CO)[C@@H](O)[C@H](O)[C@H]1O[C@@H]1O[C@H](CO)[C@@H](O)[C@H](O)[C@H]1O	ESR2	array formation, agonist	GFP-ERβ PRL-HeLa	1 h	–	EC50	3.22 µM
COc1ccc(CN2CCN(C(c3ccc(F)cc3)c3ccc(F)cc3)CC2)c(OC)c1OC.Cl.Cl	Nedd8-cullin1 interaction	neddylation, AlphaScreen	–	100 µM	–	inhibition	-8.9%
CCN1/C(=C/C(C)=O)Sc2ccc(F)cc21	–	–	cynomolgus monkey	oral, 100 mg/kg, 1 h post-dose	–	heart rate	121 ± 19 beats/min
CCCCc1oc2ccc(NS(C)(=O)=O)cc2c1C(=O)c1ccc(OCCCN(CCCC)CCCC)cc1	Nedd8-cullin1 interaction	neddylation, AlphaScreen	–	100 µM	–	inhibition	-38.7%
FC(F)(F)c1ccc(Nc2nc3ccc(Oc4ccnc(-c5ncc(C(F)(F)F)[nH]5)c4)cc3[nH]2)cc1	ESR2	array formation, agonist	GFP-ERβ PRL-HeLa	1 h	–	EC50	4.55 µM
CS(=O)(=O)N(CC(=O)Nc1ccccc1C(=O)N1CCOCC1)c1ccc(Cl)cc1	–	–	aqueous buffer	pH 7.4	–	thermodynamic solubility	< 7.14 µM
CCc1c(-c2ccccc2)c(-c2ccccc2)nn1-c1ccccc1-c1cccc(OCC(=O)O)c1	–	–	male Sprague-Dawley rat, testis	oral, 10 mg/kg, 4 h	–	concentration	357 ng/g
Cl.[2H]C([2H])([2H])CC(=O)c1cnc(NC(=O)C2CC2)cc1Nc1cccc(-c2ncn(C([2H])([2H])[2H])n2)c1OC	–	geometric mean	human	oral, 20 mg twice daily, day 7, fed, liquid, multiple dose	–	half-life	7.68 h
COCCOc1cnc2ccn([C@H](C)c3nnc4c(F)cc(-c5cnn(C)c5)cn34)c(=O)c2c1	–	–	patients, plasma	oral, 150 mg twice daily, day 1, 300 per day	–	Cmax	3040 ng/mL
COc1ccc([C@@H](O)c2cc(-c3ncnc4cc(N5CCOCC5)ccc34)c(F)cc2Cl)nn1	–	–	locally advanced rectal cancer patients	150 mg, together with: capecitabine and radiotherapy	–	fatigue TEAE incidence	50%
CCCC1CCC(c2ccc(OCC)c(F)c2F)CC1 (stereo not drawn)	–	–	rat, placenta	5000 ng/mL in perfusate, high dose, mixture of 21 LCMs	–	median placental accumulation	246 ng/g
O=C(Nc1nc2cccc(-c3ccc(CN4CCS(=O)(=O)CC4)cc3)n2n1)C1CC1	–	item: vomiting	rheumatoid arthritis patients	oral, 75 mg once daily, 4 weeks, any relatedness	–	treatment-emergent adverse events	0%
CCCOc1ccc([C@H]2CNC(=O)N2c2ccc3[nH]cnc3c2)cc1	–	–	human, urine	oral, dose not given, 24 h	reference: dose	unchanged drug in urine	~5%
CN1CCC[C@H](CN2c3ccccc3Sc3ccccc32)C1.Cl	–	–	ICR mouse female fasted, plasma	oral, 16 mg/kg	–	Tmax	1 h
O=C1NCCc2nc(OCc3cccc(F)c3)ccc21	–	item: Ptosis	Sprague-Dawley rat male	oral, 100 mg/kg, 30 min	direction not given	Irwin test score	0
CN(C(=O)n1cnc(-c2cccnc2)c1)C1CCCCC1	–	–	Wistar rat, hippocampus	oral, 10 mg/kg/day of BIA 10-2474, 24 h, repeated 5 days	–	concentration	9.6 ± 0.1 ng/g
O=C(N[C@H](Cc1c[nH]c2ccccc12)C(=O)Nc1ccncc1)c1ccc(-c2ccc(F)c(C(F)(F)F)c2)cc1F	–	–	Swiss Webster mouse, female, plasma	oral, 50 mg/kg, 8 h, 20% HPβCD vehicle	–	concentration	1530 nM
CSc1ccccc1C(=O)NCCn1cc(C(=O)NCc2cccc(C)n2)c(=O)c2cc3c(cc21)OC(F)(F)O3	–	–	Sprague-Dawley rat, male, plasma	intramuscular, 30 mg/kg of parent compound	–	Cmax	8.94 ± 3.44 ng/mL
Cn1cc(Nc2nccc(-c3ccc4c(c3)CN(C3COC3)CC[C@H]4NC(=O)c3cn(C(C)(C)C)nn3)n2)cn1	–	–	human, whole blood	50 mg twice daily, day 7	reference: pre-dose baseline	CD4+ T cell count change	12.9%
c1ccc(-c2nc(NCCn3ccnc3)c3ccccc3n2)nc1	–	–	Japanese Pharmacopoeia disintegration test solution 2	pH 6.8	–	kinetic solubility	81 µg/mL (≈ 256 µM)
O=C1CCc2ccc(OCCCCN3CCN(c4cccc(Cl)c4Cl)CC3)cc2N1	–	–	CYP2D6 intermediate metabolizers	concentration not given, genotype-based phenotype, long-acting oral or depot	–	extrapyramidal symptom frequency	9.2%
CNC(=O)c1ccc(-c2cnc3ncc(Cc4ccc5ncccc5c4)n3n2)cc1F	–	–	healthy human subjects	oral, 400 mg, all grades, all causality, together with: rifampicin 600 mg/day	–	abdominal discomfort incidence	7.7%

Excerpt of the above:
Structure (SMILES)	target or system	assay	system	setting	scale	measurement	value
Cn1cc(Nc2nccc(-c3ccc4c(c3)CN(C3COC3)CC[C@H]4NC(=O)c3cn(C(C)(C)C)nn3)n2)cn1	–	–	human, whole blood	50 mg twice daily, day 7	reference: pre-dose baseline	CD4+ T cell count change	12.9%
